Measured values from different studies.
Several values in a cell are separate wells, animals, samples, runs or records. ± marks the error that the study gave.
CASP1: Caspase-1 (CASP1, Homo sapiens, UniProt P29466)
Sequence of UniProt P29466 (whole entry, looked up): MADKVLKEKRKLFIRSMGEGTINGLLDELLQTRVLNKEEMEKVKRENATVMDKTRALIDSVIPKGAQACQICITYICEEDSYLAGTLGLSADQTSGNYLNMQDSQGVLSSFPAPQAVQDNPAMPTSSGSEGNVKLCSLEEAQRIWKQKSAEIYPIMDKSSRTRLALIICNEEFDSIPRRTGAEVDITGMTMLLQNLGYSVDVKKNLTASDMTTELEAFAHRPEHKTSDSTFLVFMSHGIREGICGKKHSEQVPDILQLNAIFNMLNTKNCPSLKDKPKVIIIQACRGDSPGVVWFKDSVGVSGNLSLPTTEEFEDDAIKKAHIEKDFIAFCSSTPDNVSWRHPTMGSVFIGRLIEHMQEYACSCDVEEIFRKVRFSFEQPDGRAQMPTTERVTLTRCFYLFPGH
Rhomboid protease AarA: Rhomboid protease AarA (Providencia stuartii, UniProt P46116)
Sequence of UniProt P46116 (whole entry, looked up): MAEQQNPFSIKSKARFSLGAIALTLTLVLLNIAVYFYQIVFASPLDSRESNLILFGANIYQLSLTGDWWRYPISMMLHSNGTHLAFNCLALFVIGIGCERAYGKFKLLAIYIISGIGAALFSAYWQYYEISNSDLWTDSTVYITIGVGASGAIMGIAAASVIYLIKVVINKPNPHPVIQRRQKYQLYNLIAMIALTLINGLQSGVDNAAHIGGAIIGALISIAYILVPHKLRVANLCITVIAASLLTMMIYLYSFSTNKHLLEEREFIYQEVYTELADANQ
T1: ssRNA, hairpin with 1x1 G/G internal loops (Homo sapiens); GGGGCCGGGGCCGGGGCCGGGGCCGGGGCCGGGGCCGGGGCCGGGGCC
Sequence of UniProt Q96FW1 (whole entry, looked up): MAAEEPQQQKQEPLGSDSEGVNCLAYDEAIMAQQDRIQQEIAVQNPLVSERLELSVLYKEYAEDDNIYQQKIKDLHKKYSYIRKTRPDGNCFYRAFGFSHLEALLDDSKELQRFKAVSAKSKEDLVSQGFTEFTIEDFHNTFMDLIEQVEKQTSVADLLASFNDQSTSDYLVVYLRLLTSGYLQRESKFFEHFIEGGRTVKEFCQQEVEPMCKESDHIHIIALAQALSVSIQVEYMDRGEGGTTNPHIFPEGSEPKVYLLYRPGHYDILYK
Sequence of UniProt Q13148 (whole entry, looked up): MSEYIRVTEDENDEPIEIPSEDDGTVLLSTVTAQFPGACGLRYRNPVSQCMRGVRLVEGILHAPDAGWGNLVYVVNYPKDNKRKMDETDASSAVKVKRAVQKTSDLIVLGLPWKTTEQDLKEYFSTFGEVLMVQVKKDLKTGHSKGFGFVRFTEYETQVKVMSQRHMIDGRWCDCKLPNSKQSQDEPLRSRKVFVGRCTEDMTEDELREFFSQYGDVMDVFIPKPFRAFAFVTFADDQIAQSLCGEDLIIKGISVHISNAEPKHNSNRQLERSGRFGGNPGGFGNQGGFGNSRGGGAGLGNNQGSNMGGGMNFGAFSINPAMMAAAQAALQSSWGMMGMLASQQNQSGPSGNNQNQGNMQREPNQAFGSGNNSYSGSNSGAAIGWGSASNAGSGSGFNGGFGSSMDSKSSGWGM
Sequence of UniProt O95881 (whole entry, looked up): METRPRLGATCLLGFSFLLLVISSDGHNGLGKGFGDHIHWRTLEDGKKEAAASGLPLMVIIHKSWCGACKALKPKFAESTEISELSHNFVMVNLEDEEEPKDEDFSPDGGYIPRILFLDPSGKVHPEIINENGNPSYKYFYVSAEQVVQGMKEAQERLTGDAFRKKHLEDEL
Sequence of UniProt P04756 (whole entry, unmodified, looked up): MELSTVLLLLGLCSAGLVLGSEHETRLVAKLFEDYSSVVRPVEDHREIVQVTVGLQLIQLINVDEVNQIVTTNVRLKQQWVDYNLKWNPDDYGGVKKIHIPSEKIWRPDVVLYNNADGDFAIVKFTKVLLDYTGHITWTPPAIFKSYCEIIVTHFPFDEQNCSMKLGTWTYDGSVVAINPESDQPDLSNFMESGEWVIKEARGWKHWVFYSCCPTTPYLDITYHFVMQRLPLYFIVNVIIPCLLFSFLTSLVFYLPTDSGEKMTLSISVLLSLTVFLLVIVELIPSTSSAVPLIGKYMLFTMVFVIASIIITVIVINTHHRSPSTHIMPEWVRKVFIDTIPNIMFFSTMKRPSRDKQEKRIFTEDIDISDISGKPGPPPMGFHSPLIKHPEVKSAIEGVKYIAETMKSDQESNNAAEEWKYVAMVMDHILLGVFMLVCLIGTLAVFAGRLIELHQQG
Sequence of UniProt Q5BJF2 (whole entry, looked up): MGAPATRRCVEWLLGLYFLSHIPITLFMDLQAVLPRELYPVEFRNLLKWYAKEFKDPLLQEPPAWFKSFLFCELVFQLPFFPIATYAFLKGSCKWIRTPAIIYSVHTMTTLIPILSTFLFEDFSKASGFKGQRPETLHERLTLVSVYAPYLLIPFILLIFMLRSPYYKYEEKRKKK
Sequence of UniProt P22309 (whole entry, looked up): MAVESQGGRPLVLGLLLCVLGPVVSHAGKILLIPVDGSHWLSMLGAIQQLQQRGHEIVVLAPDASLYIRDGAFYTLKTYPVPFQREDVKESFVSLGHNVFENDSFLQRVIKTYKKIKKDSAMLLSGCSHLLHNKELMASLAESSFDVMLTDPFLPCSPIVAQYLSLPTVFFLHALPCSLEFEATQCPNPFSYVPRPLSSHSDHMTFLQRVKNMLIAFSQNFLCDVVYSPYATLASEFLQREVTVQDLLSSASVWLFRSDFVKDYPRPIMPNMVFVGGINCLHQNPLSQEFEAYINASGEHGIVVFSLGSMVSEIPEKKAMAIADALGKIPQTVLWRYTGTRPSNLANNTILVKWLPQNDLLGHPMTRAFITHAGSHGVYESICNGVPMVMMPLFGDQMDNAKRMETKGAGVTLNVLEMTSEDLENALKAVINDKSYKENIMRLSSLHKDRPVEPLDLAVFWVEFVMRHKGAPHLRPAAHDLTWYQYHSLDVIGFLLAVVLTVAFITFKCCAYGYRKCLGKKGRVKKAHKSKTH
Sequence of UniProt Q62666 (whole entry, looked up): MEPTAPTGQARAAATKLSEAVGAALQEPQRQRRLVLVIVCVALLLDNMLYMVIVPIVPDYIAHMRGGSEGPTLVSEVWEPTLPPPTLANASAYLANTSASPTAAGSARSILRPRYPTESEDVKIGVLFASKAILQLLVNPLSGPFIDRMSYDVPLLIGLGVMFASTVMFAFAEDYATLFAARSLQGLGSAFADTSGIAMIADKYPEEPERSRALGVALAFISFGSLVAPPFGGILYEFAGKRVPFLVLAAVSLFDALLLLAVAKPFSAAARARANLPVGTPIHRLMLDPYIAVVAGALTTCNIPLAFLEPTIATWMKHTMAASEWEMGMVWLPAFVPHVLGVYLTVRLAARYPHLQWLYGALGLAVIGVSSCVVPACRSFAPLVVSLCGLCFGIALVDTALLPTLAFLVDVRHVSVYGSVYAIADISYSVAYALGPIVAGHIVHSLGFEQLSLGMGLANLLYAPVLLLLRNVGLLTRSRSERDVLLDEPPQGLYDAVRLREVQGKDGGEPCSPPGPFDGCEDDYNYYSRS
Sequence of UniProt P45983 (whole entry, looked up): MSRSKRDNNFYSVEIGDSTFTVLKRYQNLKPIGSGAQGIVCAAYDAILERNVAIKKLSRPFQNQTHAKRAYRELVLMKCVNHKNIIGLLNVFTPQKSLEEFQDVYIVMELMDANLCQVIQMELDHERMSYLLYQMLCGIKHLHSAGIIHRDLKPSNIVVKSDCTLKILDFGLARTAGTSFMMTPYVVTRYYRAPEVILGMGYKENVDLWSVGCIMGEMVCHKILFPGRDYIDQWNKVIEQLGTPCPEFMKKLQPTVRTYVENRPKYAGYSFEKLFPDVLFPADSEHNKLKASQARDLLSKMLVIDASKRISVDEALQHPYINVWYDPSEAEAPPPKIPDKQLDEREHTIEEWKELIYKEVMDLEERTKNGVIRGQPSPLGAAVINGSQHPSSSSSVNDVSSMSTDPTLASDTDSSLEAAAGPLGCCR
Sequence of UniProt P59780 (whole entry, looked up): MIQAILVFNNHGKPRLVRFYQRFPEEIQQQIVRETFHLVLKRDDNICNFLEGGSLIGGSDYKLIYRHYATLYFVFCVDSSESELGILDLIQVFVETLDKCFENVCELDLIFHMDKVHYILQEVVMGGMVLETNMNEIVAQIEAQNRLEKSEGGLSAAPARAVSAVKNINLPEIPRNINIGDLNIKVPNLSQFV
Sequence of UniProt P01112 (whole entry, looked up): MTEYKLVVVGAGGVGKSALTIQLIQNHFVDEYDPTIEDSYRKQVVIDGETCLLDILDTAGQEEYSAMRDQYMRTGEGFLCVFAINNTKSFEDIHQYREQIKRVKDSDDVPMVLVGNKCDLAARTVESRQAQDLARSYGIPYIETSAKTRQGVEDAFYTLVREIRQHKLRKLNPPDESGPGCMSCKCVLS
Sequence of UniProt P32245 (whole entry, looked up): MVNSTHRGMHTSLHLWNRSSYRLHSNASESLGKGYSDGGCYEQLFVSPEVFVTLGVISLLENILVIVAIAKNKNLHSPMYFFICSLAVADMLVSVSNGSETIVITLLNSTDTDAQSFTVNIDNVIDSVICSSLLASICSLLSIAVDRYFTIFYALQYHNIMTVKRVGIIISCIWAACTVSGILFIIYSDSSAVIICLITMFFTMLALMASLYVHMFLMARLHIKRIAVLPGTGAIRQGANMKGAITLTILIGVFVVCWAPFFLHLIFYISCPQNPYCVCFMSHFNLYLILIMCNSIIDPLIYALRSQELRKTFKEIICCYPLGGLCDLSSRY
Sequence of UniProt P28336 (whole entry, looked up): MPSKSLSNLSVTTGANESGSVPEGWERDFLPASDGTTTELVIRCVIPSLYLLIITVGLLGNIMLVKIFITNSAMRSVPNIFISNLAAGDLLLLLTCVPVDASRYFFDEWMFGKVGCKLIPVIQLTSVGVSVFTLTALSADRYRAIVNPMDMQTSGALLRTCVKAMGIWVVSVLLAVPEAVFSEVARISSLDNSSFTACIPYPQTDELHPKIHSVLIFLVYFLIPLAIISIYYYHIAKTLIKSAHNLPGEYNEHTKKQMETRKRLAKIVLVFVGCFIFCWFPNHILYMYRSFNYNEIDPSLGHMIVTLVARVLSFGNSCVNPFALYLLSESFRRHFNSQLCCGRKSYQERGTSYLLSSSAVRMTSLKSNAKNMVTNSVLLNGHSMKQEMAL

C[N+]1(C)CCCC1  koff (Chrnd/Chrna1/Chrne (Mus musculus, UniProt P02716+P04756+P20782, G173A/S470W); binding, agonist, single-channel recording; binding site chain A side): 2880 s⁻¹
C[Si](C)(C)C[C@H](CN)CC(=O)O  inhibition (Neuromedin-B receptor (NMBR, Homo sapiens, UniProt P28336); cell-free assay, inhibitor; 250 µM): 4%
CCCCOc1ccc(C(=O)OCC[N+]2(C)CC=CCC2)cc1 (stereo not drawn)  basal binding (Muscarinic acetylcholine receptor M2 (CHRM2, Homo sapiens, UniProt P08172); membranes; 1 µM, 15 h, no carbachol; reference: control): 1.7 ± 0.1 fold
N#CN1CC[C@H](C(=O)Nc2nc3c(s2)CN(C(=O)Cn2cc(COCCOCCOCCOCCNC(=O)CCCC[C@@H]4SC[C@@H]5NC(=O)N[C@@H]54)nn2)CC3)C1  iBAQ abundance (Ubiquitin thioesterase OTUB1 (OTUB1, Homo sapiens, UniProt Q96FW1); probe binding, affinity probe, neutravidin pull-down LC-MS/MS; HEK293T, cell lysate; 5 µM, 1 h, single replicate, unit not given; higher = more pulled down): 47900 and 674000 and 1.61e+06
CC(=O)N[C@@H](CC(C)C)C(=O)N[C@@H](CCC(=O)O)C(=O)N[C@@H](COCc1ccccc1)C(=O)N[C@@H](CC(=O)O)C(=O)COC(=O)c1c(C)cccc1C  kinact/KI (CASP1; enzyme activity, inhibitor): 896000 M⁻¹ s⁻¹
COc1ccc(Cl)cc1NC(=O)C1CCCC1  IC50 (Rhomboid protease AarA; enzyme activity, inhibitor, fluorogenic peptide substrate): inactive
CC[C@H](C)[C@H](NC(=O)CN1CC=CCCC(=O)N[C@@H](Cc2ccccc2)C(=O)N[C@@H](CCC(=O)O)C1=O)C(=O)N[C@@H](Cc1ccc(O)cc1)C(=O)N[C@@H](CCCNC(=N)N)C(=O)N[C@@H](CC(C)C)C(=O)N[C@@H](CCC(=O)O)C(=O)N[C@@H](CC(C)C)C(=O)N[C@@H](CC(C)C)C(=O)N[C@@H](CCCCN)C(N)=O  nucleotide exchange activity (GTPase HRas, with SOS1 catalytic domain (HRAS, Homo sapiens, UniProt P01112); inhibitor, mant-GDP release; 25 µM, together with: Sos): inactive
CN(Cc1cc(C2CC2)on1)C(=O)c1cccc(-c2ccc3c(c2)CCO3)c1  reaction rate (Acetyl-CoA synthetase (Cryptococcus neoformans, UniProt J9VFT1); enzyme activity, inhibitor, coupled pyrophosphate; 1.56 µM; higher is more activity): 0.0023 a.u.
Cc1ccc(C2CCN(C3CCCCC3O)CC2)cc1 (racemic)  selectivity ratio (Vesicular acetylcholine transporter (Rattus norvegicus, UniProt Q62666); rat liver (sigma2); reference: Ki sigma2 over Ki VAChT): 0.12
Cc1ccc(S(=O)(=O)N2CC(NC(=O)c3ccc(C#N)cc3)C2=O)cc1 (stereo not drawn)  IC50 (Rhomboid protease AarA; enzyme activity, inhibitor, fluorogenic peptide substrate): inactive
O=C(CN1CCCN(C(=O)CN2CCCN(Cc3cccc4cnccc34)CC2)CC1)NCc1cccc2cnccc12  Kd (T1, ssRNA, hairpin with 1x1 G/G internal loops (Homo sapiens); BLI): 17 µM
CC(=O)N[C@H](CCc1ccccc1)C(=O)N[C@@H](CCCC(=O)O)C(=O)N1C[C@H](O)C[C@H]1C(=O)N[C@@H](CC(=O)O)C(=O)COC(=O)c1c(C)cccc1C  kinact/KI (CASP1; enzyme activity, inhibitor): 954000 M⁻¹ s⁻¹
N=C(N)NCCC[C@H](NC(=O)[C@H](Cc1ccc(O)cc1)NC(=O)CNC(=O)[C@H](Cc1c[nH]cn1)NC(=O)[C@H](Cc1c[nH]cn1)NC(=O)[C@H](CCCNC(=N)N)NC(=O)[C@H](CCCCN)NC(=O)[C@H](CCC(=O)O)NC(=O)[C@H](Cc1c[nH]cn1)NC(=O)[C@H](COP(=O)(O)O)NC(=O)[C@@H](N)CC(=O)O)C(=O)N[C@@H](CCCNC(=N)N)C(=O)N[C@@H](CCCCN)C(=O)N[C@@H](Cc1ccccc1)C(=O)N[C@@H](Cc1c[nH]cn1)C(=O)N[C@@H](CCC(=O)O)C(=O)N[C@@H](CCCCN)C(=O)N[C@@H](Cc1c[nH]cn1)C(=O)N[C@@H](Cc1c[nH]cn1)C(=O)N[C@@H](CO)C(=O)N[C@@H](Cc1c[nH]cn1)C(=O)N[C@@H](CCCNC(=N)N)C(=O)N[C@@H](CCC(=O)O)C(=O)N[C@@H](Cc1ccccc1)C(=O)N1CCC[C@H]1C(=O)N[C@@H](Cc1ccccc1)C(=O)O  binding response (Sigma intracellular receptor 2 (TMEM97, Homo sapiens, UniProt Q5BJF2); SPR; concentration not given, 25 °C; reference: Rmax): 8%
O=C(O)C1OC(Oc2cccc(-c3oc4ccccc4c(=O)c3O)c2)C(O)C(O)C1O (stereo not drawn)  Vmax (UDP-glucuronosyltransferase 1A1 (UGT1A1, Homo sapiens, UniProt P22309); glucuronidation; Supersomes): 7430 ± 7800 pmol/min/mg
O=C1c2sc(-c3ccc(N4CCC(F)C4)nc3F)nc2CCN1c1cccnc1 (stereo not drawn)  specific binding (TAR DNA-binding protein 43, aggregated (TARDBP, Homo sapiens, UniProt Q13148); radioligand binding; human, FTLD-TDP type B sarkosyl-insoluble extract; 6.91 nM): 0.287 nM and 0.478 nM
O=C(NC[C@@H](Cc1ccc(F)cc1)N1CCC(O)(C(F)(F)F)CC1)C1(c2ccc(Cl)cc2)CCCC1  EC50 (Transient receptor potential cation channel subfamily A member 1 (Trpa1, Rattus norvegicus, UniProt Q6RI86); calcium influx, agonist): inactive
CCOC(=O)c1c(NC(=O)c2nn3c(c2Cl)NC(c2cccs2)CC3C(F)(F)F)sc2c1CCC2 (stereo not drawn)  koff (Heat shock protein HSP 90-alpha, N-terminal domain (HSP90AA1, Homo sapiens, UniProt P07900); SPR, two-state model; N-terminal domain): 0.0102 ± 0.00867 s⁻¹
[N-]=[N+]=N[C@]1(COP(=O)(O)OP(=O)(O)OP(=O)(O)O)O[C@@H](n2ccc(N)nc2=O)[C@@H](F)[C@@H]1O  Km (Gag-Pol polyprotein, reverse transcriptase (gag-pol, Human immunodeficiency virus type 1 group M subtype B, UniProt P04585); nucleotide incorporation, substrate; HIV-1; together with: DNA template): 79 nM
Cn1cc(-c2cc(N3CCCCS3(=O)=O)ccc2N[C@H]2CC[C@H](C)CC2)c2cc[nH]c2c1=O (stereo in doubt)  remaining binding (Peregrin (BRPF1, Homo sapiens, UniProt P55201); binding, competition with immobilised ligand; 1 µM): 100%
COc1ccc(Cl)cc1NC(=O)CS(C)(=O)=O  IC50 (Rhomboid protease AarA; enzyme activity, inhibitor, fluorogenic peptide substrate): inactive
CC[C@H](C)[C@H](NC(C)=O)C(=O)N[C@@H](CCC(=O)O)C(=O)N[C@H](C(=O)N[C@@H](CC(=O)O)C(=O)COC(=O)c1c(C)cccc1C)[C@@H](C)O  kinact/KI (CASP1; enzyme activity, inhibitor): 94500 M⁻¹ s⁻¹
C#CCCCCNC(=O)c1ccc(N(C(=O)C=C)c2ccc(Br)cc2)cc1  reactivity ratio (Thioredoxin domain-containing protein 12 (TXNDC12, Homo sapiens, UniProt O95881); mass spectrometry profiling; Ramos cell lysate; 100 µM over 10 µM, UniProt O95881; reference: high over low concentration): 12.2
COC(=O)[C@@]1(C)C=C(C(=O)Nc2cccc(C(=O)Nc3ccc(Nc4nccc(-c5cccnc5)n4)c(C)c3)c2)C(=O)CC1  normalized fluorescence polarization (Mitogen-activated protein kinase 8, docking groove (MAPK8, Homo sapiens, UniProt P45983); peptide binding, inhibitor, fluorescence polarization; 50 µM, together with: JIP1 peptide probe): 0.833
CC(C=CC=C(C)C=CC1=C(C)CCCC1(C)C)=CC=O  plasma membrane localization (Rhodopsin (RHO, Homo sapiens, UniProt P08100, E181K); immunostaining, measured: opsin; COS-7 transfected; 1.00 µM, unit not given; reference: surface over total stained cells): 0.48
CC(=O)N[C@@H](CCCNC(=N)N)C(=O)NC1CCCCCCC(C(N)=O)NC(=O)[C@H](Cc2c[nH]c3ccccc23)NC(=O)[C@H](CCCNC(=N)N)NC(=O)[C@@H](Cc2ccccc2)NC(=O)[C@H](Cc2c[nH]cn2)NC(=O)[C@@H](C)NC1=O (stereo partly drawn)  fold decrease in potency (Melanocortin receptor 4 (MC4R, Homo sapiens, UniProt P32245); cAMP accumulation, agonist, LANCE TR-FRET cAMP; CHO-K1 cells; reference: setmelanotide): ~100 fold
CN(Cc1ccc(/C=C/C(=O)NO)cc1)CC12CC3CC(CC(C3)C1)C2  inhibition (MMP-3; enzyme activity; 0.05 µM): 5%
CCCCCC(O)/C=C/C=O (stereo not drawn)  isoTOP-ABPP competition ratio (AP-3 complex subunit sigma-2 (AP3S2, Homo sapiens, UniProt P59780); competitive isoTOP-ABPP, measured: AP3S2 cysteine peptide; proteome, soluble, MDA-MB-231; 100 µM, together with: iodoacetamide probe; reference: DMSO over compound-treated, higher = stronger cysteine blockade): 1.7

Repeated from above:
C[Si](C)(C)C[C@H](CN)CC(=O)O  inhibition (Neuromedin-B receptor (NMBR, Homo sapiens, UniProt P28336); cell-free assay, inhibitor; 250 µM): 4%
CCCCOc1ccc(C(=O)OCC[N+]2(C)CC=CCC2)cc1 (stereo not drawn)  basal binding (Muscarinic acetylcholine receptor M2 (CHRM2, Homo sapiens, UniProt P08172); membranes; 1 µM, 15 h, no carbachol; reference: control): 1.7 ± 0.1 fold
N#CN1CC[C@H](C(=O)Nc2nc3c(s2)CN(C(=O)Cn2cc(COCCOCCOCCOCCNC(=O)CCCC[C@@H]4SC[C@@H]5NC(=O)N[C@@H]54)nn2)CC3)C1  iBAQ abundance (Ubiquitin thioesterase OTUB1 (OTUB1, Homo sapiens, UniProt Q96FW1); probe binding, affinity probe, neutravidin pull-down LC-MS/MS; HEK293T, cell lysate; 5 µM, 1 h, single replicate, unit not given; higher = more pulled down): 47900 and 674000 and 1.61e+06
CC(=O)N[C@@H](CC(C)C)C(=O)N[C@@H](CCC(=O)O)C(=O)N[C@@H](COCc1ccccc1)C(=O)N[C@@H](CC(=O)O)C(=O)COC(=O)c1c(C)cccc1C  kinact/KI (CASP1; enzyme activity, inhibitor): 896000 M⁻¹ s⁻¹
COc1ccc(Cl)cc1NC(=O)C1CCCC1  IC50 (Rhomboid protease AarA; enzyme activity, inhibitor, fluorogenic peptide substrate): inactive
